# Measured values of several laboratories.
# Numbered parts are unrelated; each lists some results of a single study. Several values in a cell are separate wells, animals, samples, runs or records.
# Sequence of UniProt P06239 (whole entry, looked up): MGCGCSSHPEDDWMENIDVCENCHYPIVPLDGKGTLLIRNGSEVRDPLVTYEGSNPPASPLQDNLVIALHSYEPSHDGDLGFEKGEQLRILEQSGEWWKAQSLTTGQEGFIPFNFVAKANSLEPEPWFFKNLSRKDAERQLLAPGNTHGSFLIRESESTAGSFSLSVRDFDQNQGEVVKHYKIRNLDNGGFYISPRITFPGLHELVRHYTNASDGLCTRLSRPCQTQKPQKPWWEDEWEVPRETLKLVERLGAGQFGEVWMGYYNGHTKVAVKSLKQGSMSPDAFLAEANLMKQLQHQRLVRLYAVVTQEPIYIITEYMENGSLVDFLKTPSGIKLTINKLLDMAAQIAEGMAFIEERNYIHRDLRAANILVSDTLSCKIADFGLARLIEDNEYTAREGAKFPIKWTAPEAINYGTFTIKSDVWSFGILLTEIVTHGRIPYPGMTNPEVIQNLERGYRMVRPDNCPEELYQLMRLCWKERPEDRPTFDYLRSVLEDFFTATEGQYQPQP
# Sequence of UniProt Q02763 (whole entry, looked up): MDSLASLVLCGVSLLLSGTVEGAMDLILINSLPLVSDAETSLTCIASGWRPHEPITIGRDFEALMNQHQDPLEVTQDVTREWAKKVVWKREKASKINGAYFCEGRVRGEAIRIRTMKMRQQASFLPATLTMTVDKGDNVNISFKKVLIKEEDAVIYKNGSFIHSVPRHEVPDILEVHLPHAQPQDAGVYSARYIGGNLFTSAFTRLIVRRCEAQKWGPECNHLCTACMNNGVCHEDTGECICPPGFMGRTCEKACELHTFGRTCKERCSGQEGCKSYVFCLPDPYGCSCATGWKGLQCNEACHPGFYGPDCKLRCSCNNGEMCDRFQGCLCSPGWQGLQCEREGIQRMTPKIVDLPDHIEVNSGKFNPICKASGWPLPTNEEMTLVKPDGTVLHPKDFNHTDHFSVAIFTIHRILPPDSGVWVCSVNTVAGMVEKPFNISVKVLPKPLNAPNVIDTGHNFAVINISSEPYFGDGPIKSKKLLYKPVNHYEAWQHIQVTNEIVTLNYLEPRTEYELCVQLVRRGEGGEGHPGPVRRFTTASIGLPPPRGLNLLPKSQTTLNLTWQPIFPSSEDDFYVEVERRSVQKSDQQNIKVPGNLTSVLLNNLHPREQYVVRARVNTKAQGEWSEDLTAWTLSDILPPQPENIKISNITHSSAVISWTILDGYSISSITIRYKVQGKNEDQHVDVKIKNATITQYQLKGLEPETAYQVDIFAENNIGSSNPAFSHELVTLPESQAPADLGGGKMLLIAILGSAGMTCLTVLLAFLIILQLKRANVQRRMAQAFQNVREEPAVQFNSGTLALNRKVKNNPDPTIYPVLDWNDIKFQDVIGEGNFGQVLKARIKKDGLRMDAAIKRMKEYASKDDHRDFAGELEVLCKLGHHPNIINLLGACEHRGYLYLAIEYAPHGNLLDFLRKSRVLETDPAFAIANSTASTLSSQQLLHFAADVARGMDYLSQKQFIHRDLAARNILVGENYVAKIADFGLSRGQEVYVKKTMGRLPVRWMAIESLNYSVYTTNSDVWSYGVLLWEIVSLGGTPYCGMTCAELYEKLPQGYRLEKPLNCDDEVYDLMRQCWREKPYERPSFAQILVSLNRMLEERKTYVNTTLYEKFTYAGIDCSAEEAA
# Sequence of UniProt Q96PY6 (whole entry, looked up): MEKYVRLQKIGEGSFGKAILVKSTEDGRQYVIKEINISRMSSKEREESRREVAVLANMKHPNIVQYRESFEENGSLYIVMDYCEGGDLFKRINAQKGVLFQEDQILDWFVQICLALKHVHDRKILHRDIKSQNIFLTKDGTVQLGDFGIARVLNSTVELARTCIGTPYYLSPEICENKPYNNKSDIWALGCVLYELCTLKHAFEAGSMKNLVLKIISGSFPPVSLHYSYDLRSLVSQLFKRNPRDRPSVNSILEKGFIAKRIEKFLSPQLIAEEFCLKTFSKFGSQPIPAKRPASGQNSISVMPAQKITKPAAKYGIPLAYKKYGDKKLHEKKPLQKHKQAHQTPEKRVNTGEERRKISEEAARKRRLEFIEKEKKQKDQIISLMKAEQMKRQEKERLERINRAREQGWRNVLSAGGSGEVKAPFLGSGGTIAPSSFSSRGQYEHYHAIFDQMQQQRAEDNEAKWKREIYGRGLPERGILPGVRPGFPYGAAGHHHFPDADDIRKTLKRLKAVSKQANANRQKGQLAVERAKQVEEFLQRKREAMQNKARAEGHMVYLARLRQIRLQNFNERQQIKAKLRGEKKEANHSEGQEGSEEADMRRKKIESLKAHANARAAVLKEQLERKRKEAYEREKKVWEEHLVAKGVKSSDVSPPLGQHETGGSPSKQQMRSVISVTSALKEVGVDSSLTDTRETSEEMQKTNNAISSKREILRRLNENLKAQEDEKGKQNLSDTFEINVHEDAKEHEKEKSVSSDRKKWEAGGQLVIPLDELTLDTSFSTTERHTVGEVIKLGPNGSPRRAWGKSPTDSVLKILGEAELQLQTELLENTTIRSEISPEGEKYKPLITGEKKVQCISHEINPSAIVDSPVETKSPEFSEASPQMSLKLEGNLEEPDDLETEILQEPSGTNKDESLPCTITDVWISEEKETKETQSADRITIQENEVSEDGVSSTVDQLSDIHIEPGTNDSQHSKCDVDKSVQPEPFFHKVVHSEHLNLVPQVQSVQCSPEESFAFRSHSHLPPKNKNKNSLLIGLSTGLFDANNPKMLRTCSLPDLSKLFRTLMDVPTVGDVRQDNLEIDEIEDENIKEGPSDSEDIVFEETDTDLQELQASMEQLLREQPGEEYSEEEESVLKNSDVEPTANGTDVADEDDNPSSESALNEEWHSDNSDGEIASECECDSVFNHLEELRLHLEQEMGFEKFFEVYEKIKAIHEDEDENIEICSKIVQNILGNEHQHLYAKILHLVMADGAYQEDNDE
# Sequence of UniProt Q59H18 (whole entry, looked up): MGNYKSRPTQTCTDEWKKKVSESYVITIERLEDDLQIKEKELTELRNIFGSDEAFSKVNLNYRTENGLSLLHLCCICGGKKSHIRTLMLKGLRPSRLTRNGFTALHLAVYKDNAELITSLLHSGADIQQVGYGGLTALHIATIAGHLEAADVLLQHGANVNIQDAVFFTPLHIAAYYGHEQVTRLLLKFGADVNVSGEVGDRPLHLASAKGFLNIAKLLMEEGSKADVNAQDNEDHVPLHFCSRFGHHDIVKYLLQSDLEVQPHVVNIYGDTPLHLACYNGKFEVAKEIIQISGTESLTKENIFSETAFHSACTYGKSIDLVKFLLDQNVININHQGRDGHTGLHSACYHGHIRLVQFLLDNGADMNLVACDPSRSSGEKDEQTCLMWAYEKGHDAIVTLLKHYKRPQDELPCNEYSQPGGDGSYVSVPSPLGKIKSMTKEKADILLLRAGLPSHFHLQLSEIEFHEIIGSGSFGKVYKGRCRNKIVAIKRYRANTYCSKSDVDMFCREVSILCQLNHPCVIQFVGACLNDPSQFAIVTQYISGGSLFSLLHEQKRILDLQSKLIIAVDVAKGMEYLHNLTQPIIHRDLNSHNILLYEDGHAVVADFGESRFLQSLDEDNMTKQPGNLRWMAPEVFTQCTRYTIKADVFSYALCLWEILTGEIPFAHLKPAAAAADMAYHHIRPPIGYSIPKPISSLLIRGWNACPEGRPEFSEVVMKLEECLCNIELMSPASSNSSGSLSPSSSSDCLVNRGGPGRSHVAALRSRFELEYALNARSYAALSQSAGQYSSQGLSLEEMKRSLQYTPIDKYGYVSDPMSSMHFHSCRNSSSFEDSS
# Sequence of UniProt P10398 (whole entry, looked up): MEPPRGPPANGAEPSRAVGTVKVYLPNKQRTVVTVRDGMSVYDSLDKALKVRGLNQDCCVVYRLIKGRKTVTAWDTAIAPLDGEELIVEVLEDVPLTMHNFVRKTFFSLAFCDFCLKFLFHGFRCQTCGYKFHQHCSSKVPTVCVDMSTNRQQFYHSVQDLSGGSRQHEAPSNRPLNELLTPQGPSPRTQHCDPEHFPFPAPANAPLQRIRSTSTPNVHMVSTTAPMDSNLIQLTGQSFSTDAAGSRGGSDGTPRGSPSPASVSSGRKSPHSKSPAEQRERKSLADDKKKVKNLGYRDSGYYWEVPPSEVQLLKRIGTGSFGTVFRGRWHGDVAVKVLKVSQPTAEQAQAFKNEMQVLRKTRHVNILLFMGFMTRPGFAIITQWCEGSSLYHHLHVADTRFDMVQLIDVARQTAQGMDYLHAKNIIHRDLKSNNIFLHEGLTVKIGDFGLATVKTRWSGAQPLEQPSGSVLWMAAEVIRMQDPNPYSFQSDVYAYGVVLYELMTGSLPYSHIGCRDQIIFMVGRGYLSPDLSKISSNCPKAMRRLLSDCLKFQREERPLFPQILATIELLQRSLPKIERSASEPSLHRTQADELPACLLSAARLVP
# Sequence of UniProt P78368 (whole entry, looked up): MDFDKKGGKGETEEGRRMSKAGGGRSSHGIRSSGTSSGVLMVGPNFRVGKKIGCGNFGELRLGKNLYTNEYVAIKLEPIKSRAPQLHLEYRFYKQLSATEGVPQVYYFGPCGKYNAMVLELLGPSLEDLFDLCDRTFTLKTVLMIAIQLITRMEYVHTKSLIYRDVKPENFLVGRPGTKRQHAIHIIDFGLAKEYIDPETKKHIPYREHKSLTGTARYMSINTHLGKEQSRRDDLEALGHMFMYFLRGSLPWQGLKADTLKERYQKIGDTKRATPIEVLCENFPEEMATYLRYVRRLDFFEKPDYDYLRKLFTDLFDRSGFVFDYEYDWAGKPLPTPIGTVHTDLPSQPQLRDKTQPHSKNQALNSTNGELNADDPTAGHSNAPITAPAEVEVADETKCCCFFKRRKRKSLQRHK
# Sequence of UniProt Q9HC98 (whole entry, looked up): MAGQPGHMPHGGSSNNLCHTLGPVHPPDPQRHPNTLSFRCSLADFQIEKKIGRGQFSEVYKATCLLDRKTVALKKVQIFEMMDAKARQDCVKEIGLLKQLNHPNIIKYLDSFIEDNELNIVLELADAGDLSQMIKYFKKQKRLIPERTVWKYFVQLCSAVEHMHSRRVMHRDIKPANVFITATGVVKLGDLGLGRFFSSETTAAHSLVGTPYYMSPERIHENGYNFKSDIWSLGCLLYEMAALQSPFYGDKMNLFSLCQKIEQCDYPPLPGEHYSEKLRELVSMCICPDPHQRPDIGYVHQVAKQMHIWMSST

# Sample 1
# Structure (SMILES): CC(=O)N[C@@H](Cc1c[nH]c2ccccc12)C(=O)N[C@@H](CCC(=O)C=[N+]=[N-])C(=O)OC(C)C
# Technique: UPLC-MS/MS metabolomics
# Species: C57BL/6 CES1-/- mice, EL4 tumour
# Medium: EL4 tumour
# Route: subcutaneous
# Dose: 0.3 mg/kg/day DON equivalent
# Time: 5 days
# Notes: normalised to tissue mass
item,peak intensity
hexose diphosphates,1.09e+07 a.u. and 6.33e+06 a.u. and 8.06e+06 a.u. and 4.89e+06 a.u. and 8.1e+06 a.u. and 6.16e+06 a.u.
N6-succinyladenosine,179000 a.u. and 161000 a.u. and 134000 a.u. and 129000 a.u. and 132000 a.u. and 243000 a.u.
adenine,2.49e+06 a.u. and 3.94e+06 a.u. and 2.95e+06 a.u. and 3.31e+06 a.u. and 3.33e+06 a.u. and 3.06e+06 a.u.
UDP-glucuronate,320000 a.u. and 307000 a.u. and 236000 a.u. and 223000 a.u. and 208000 a.u. and 166000 a.u.

# Sample 2
# Structure (SMILES): COc1ccc2[nH]c3c4[nH]c5ccc(OC)cc5c4c4c(c3c2c1)C(=O)NC4=O
# Observed: binding
# Tested at: 1 µM
target,technique,remaining binding [%]
"TLK1 (Homo sapiens, UniProt Q9UKI8)",,100
"PTK2B (Homo sapiens, UniProt Q14289)",,68
"CDK7 (Homo sapiens, UniProt P50613)",competition with immobilised ligand,56
"ERBB4 (Homo sapiens, UniProt Q15303)",competition with immobilised ligand,59
"TNNI3K (Homo sapiens, UniProt Q59H18)",competition with immobilised ligand,90
"MAP3K10 (Homo sapiens, UniProt Q02779)",,83
"Tyrosine-protein kinase ABL1, phosphorylated (ABL1, Homo sapiens, UniProt P00519, E255K)",competition with immobilised ligand,64

# Sample 3
# SMILES: O=C(NCc1ncc(C(F)(F)F)cc1Cl)c1ccc2c(c1)C1(CCS(=O)(=O)CC1)[C@@H](C1CC1)N2S(=O)(=O)c1ccc(F)cc1
# Technique: CellTiter-Glo
# Tested at: 1 µM
# Time: 4 days
# Relative to: DMSO
cell line,viability
sample G normal colon organoid,102%
sample E normal colon organoid,108%
sample F normal colon organoid,106%

# Sample 4
# Compound: O=C1Cc2c([nH]c3ccc([N+](=O)[O-])cc23)-c2ccccc2N1
# Observed: enzyme activity
# Action: inhibitor
# Tested at: 0.5 µM
# Relative to: control
target,remaining activity
"MAPK3 (Homo sapiens, UniProt P27361)",93.5%
"NEK6 (Homo sapiens, UniProt Q9HC98)",97.1%
"TEK (Homo sapiens, UniProt Q02763)",92.1%
"EPHA3 (Homo sapiens, UniProt P29320)",97.8%
"ARAF (Homo sapiens, UniProt P10398)",96.2%
"RPS6KA2 (Homo sapiens, UniProt Q15349)",62%
"NEK1 (Homo sapiens, UniProt Q96PY6)",105%
"LCK (Homo sapiens, UniProt P06239)",81.2%
"FGFR3 (Homo sapiens, UniProt P22607)",90.5%
"MAPKAPK2 (Homo sapiens, UniProt P49137)",77.4%
"FGFR1 (Homo sapiens, UniProt P11362)",88.6%
"CSNK1G2 (Homo sapiens, UniProt P78368)",91.7%
"ABL2 (Homo sapiens, UniProt P42684)",54.6%
"ULK2 (Homo sapiens, UniProt Q8IYT8)",72.7%

# For quick reference, copied from above (sample 4):
target,remaining activity
"MAPK3 (Homo sapiens, UniProt P27361)",93.5%
"TEK (Homo sapiens, UniProt Q02763)",92.1%
"NEK1 (Homo sapiens, UniProt Q96PY6)",105%
"LCK (Homo sapiens, UniProt P06239)",81.2%
